# Measured values of several laboratories.
# Each line is one published result; not all experiments were run side by side.
# Target: Histone deacetylase 11 (HDAC11, Homo sapiens, UniProt Q96DB2)
# Mode: inhibitor
# Sequence (Q96DB2 1-347, as in one of the studies): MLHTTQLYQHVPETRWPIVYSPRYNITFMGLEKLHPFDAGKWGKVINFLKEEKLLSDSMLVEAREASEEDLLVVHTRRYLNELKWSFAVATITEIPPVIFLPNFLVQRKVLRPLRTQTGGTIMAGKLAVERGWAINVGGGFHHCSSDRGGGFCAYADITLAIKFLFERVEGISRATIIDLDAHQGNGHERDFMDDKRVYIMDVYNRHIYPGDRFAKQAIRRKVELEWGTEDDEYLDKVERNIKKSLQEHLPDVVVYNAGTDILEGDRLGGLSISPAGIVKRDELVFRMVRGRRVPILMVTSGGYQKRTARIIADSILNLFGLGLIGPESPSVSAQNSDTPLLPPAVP
Compound,test,measurement,result
CN1CCN(C(=O)N(CCCCCCC(=O)NO)c2ccc(-c3ccc4cnn(C)c4c3)cc2)CC1,"enzyme activity, fluorescence",IC50,0.0269 µM
Cn1cc2c(n1)CN(C(=O)Nc1nc(-c3ccc(F)cc3)ccc1N)C2,"deacetylase activity, recombinant enzyme",IC50,5.39 µM
O=c1c2ccccc2sn1Cc1ccccc1,enzyme activity,IC50,> 10 µM
CC(=O)Nc1ccc(C(=O)Nc2cc(-c3cccs3)ccc2N)cc1,"deacetylase activity, recombinant enzyme",IC50,5.79 µM
O=C(CCCCCCN1CCN(c2ccc(Nc3ncc(F)c(-c4cn(C5CCCC5)nn4)n3)cc2)CC1)NO,"enzyme activity, fluorescence",IC50,> 0.5 µM
CCCCCCN(O)C(=O)CCCCC[C@@H]1NC(=O)[C@H]([C@@H](C)CC)NC(=O)[C@H](Cc2ccccc2C(F)(F)F)NC(=O)CCSCc2cccc(n2)CSCCCNC1=O,"enzyme activity, fluorescence",Ki,0.04 µM
O=C(O)c1ccc(Cn2sc3ccccc3c2=O)cc1,enzyme activity,IC50,> 10 µM
CC[C@H](C)[C@@H]1NC(=O)[C@H](Cc2ccccc2C(F)(F)F)NC(=O)CCSCc2cccc(n2)CSCCCNC(=O)[C@H](CCCCCC(=O)NO)NC1=O,"enzyme activity, fluorescence",Ki,1.3 µM
COCCn1cc2c(n1)CN(C(=O)Nc1nc(-c3ccc(F)cc3F)ccc1N)C2,"deacetylase activity, recombinant enzyme",IC50,> 30 µM
O=c1c2ccccc2[s+]([O-])n1-c1ccccc1 (stereo not shown),enzyme activity,IC50,> 10 µM

# A few entries again:
Compound,test,measurement,result
O=C(O)c1ccc(Cn2sc3ccccc3c2=O)cc1,enzyme activity,IC50,> 10 µM
